Assay results from different studies.
Parts stem from different laboratories: compare values within a part only. Values joined by “and” are separate records of one study, mostly repeats; a detail may differ.

Study 1
Technique: PRP chromatography estimate
Sample: 1,9-decadiene/PBS
pH: 7.4
| SMILES | logD |
| --- | --- |
| CCC[C@H]1NC(=O)CSC[C@@H](C(=O)OCC)N(C)C(=O)[C@H](CC(C)C)NC(=O)[C@@H](C)N(C)C(=O)[C@H](CC(C)C)NC(=O)[C@H](C)N(C)C(=O)[C@@H]2CCCN2C(=O)[C@@H](CC(C)C)NC(=O)CN(C)C1=O | -0.724 |
| CC(C)C[C@@H]1NC(=O)[C@H](Cc2cscn2)NC(=O)[C@H](CCC(=O)N2CCCC2)NC(=O)[C@H](C)NC(=O)[C@@H](Cc2cscn2)NC(=O)[C@H](CC(C)C)NC(=O)[C@@H](CC(C)C)NC1=O | -2.38 |
| CC(C)C[C@@H]1NC(=O)[C@H](C)NC(=O)[C@H](Cc2cscn2)NC(=O)[C@@H](CC(C)C)NC(=O)[C@@H](CCC(=O)N2CCCC2)NC(=O)[C@H](CC(C)C)NC(=O)[C@@H](CC(C)C)NC1=O | -1.02 |
| CC(C)C[C@@H]1NC(=O)[C@H](Cc2cscn2)NC(=O)[C@@H](CC(C)C)NC(=O)[C@H](CC(C)C)NC(=O)[C@@H](Cc2cscn2)NC(=O)[C@H](CC(C)C)NC(=O)[C@@H](CC(C)C)NC1=O | 0.418 |
| CC(C)C[C@@H]1NC(=O)[C@H](CC(C)C)NC(=O)[C@H](CC(C)C)NC(=O)[C@@H](C)NC(=O)[C@H](C(C)C)NC(=O)[C@H](C)NC(=O)[C@H](C)NC1=O | -2.63 |
| CC(C)C[C@@H]1NC(=O)[C@H](CC(C)C)NC(=O)[C@@H](C(C)C)NC(=O)[C@H](C)NC(=O)[C@@H](Cc2cscn2)NC(=O)[C@H](C)NC(=O)[C@H](CCC(=O)N2CCCC2)NC1=O | -3.51 |
| CC(C)C[C@@H]1NC(=O)[C@H](C(C)C)NC(=O)[C@@H](CC(C)C)NC(=O)[C@@H](CC(C)C)NC(=O)[C@@H](Cc2cscn2)NC(=O)[C@H](CC(C)C)NC(=O)[C@@H](CC(C)C)NC1=O | 1.15 |

Study 2
SMILES: O=C(O)[C@@H]1[C@@H](Cn2nnc3ccccc3c2=O)CC[C@H]1C(=O)c1ccc(OCCC2CCOCC2)cc1
Technique: CellTiter-Glo
Tested at: 1 µM
Time: 4 days
Relative to: DMSO
| cell line | viability [%] |
| --- | --- |
| sample F normal colon organoid | 107 |
| sample E normal colon organoid | 123 |
| sample G normal colon organoid | 104 |

Study 3
Cell line: mouse MPNST tumor cells
Technique: high-content immunofluorescence imaging
Item: nuclear SOX9
Tested at: 10 µM
Time: 12 h
Notes: mean of 2 replicates
Relative to: DMSO control
Direction: higher = more nuclear SOX9
| SMILES | nuclear SOX9 intensity |
| --- | --- |
| O=C(O)Cc1sc(-c2ccccc2)nc1-c1ccc(Cl)cc1 | 87.5 % of DMSO |
| CN1C(C(=O)Nc2ccccn2)=C(O)c2sccc2S1(=O)=O | 101 % of DMSO |
| CO/N=C1\CN(c2nc3c(cc2F)c(=O)c(C(=O)O)cn3C2CC2)CC1CN (stereo not shown) | 121 % of DMSO |
| NC[C@H]1O[C@H](O[C@H]2[C@H](O[C@@H]3O[C@H](CO)[C@@H](O)[C@H]3O)[C@@H](O)[C@H](N)C[C@@H]2N)[C@H](N)[C@@H](O)[C@@H]1O | 113 % of DMSO |
| CCCCN1C[C@H](O)[C@@H](O)[C@H](O)[C@H]1CO | 92.2 % of DMSO |

Study 4
Structure (SMILES): CC(C)C[C@@H]1NC(=O)[C@@H](N(C)C(=O)[C@H](CC2CCC2)NC(=O)[C@@H]2C[C@@H](F)CN2C(=O)C2(C(F)(F)F)CC(F)(F)C2)CCCCNC(=O)C2(CC2)NC(=O)[C@H](Cc2cc(Cl)ccc2Cl)N(C)C1=O
Technique: PI flow cytometry
Time: 24 h
| cell line | conditions | G1 phase cells |
| --- | --- | --- |
| HCC4006 | 2000 nM | 35.1% and 55.9% and 40.3% |
| HCC4006 | 200 nM | 56.7% and 49.5% and 44.8% |
| NCI-H1299 | 2000 nM | 50.4% and 61.2% |
| A549 | 200 nM | 61.5% and 57.7% and 61.3% |
| NCI-H1299 | 200 nM | 58.6% and 61.3% and 62.6% |
| NCI-H446 | 2000 nM | 9.37% and 11.1% and 8.26% |
| A549 | 20 nM | 59.5% and 59.2% and 66.8% |

Repeated from above (study 4):
| cell line | conditions | G1 phase cells |
| --- | --- | --- |
| A549 | 200 nM | 61.5% and 57.7% and 61.3% |
| HCC4006 | 200 nM | 56.7% and 49.5% and 44.8% |
| NCI-H1299 | 200 nM | 58.6% and 61.3% and 62.6% |
